Experimental data of several laboratories.
Protocols differ between the studies behind these lines. “And” joins repeats or separate records; there may be more than shown. ± gives the spread as reported. Converted amounts (≈) assume the structure as drawn.
Organism: Escherichia coli

`N=C(N)c1cccc(OCCCCCOc2cccc(C(=N)N)c2)c1`: “MIC in combination” 100 µg/mL (BW25113; concentration not given, lowest-FICI combination, added: erythromycin).
`CC(C)Oc1c(NC(=O)c2ccc(NC(=O)[C@H](CC(N)=O)NC(=O)c3ccc(NC(=O)c4ccc(C#N)cc4)cc3)cc2)ccc(C(=O)Nc2ccc(C(=O)O)cc2)c1O`: “bacterial burden reduction” 3.97 log10 CFU/g (ATCC 25922, neutropenic mouse thigh infection; intravenous, 20 mg/kg/day, 5 mg/kg/dose; relative to: vehicle).
With `CC(=O)Oc1ccc(-c2c(C(N)=O)c(N)n(N)c(=O)c2C#N)cc1` the viable count was 6.12 log CFU/mL (time-kill; 1 x MIC, 15 min).
`N=C(N)c1cccc(OCc2cccc(COc3cccc(C(=N)N)c3)c2)c1` — result for “MIC of compound in combination”: 50 µg/mL (checkerboard; BW25113; concentration not given, lowest-FICI combination, added: erythromycin).
`CNC(C)C1CCC(N)C(OC2C(N)CC(N)C(OC3OCC(C)(O)C(NC)C3O)C2O)O1` (centres unmarked): “inhibition zone diameter” 0 mm (CGMCC 1.9; concentration not given, 18 h, 37 °C).
`C[C@@H](O)[C@H]1C(=O)N2C(C(=O)O)=C(SCCN=CN)C[C@H]12` gave a bacterial load of 6.68 log CFU/g and 6.9 log CFU/g and 6.79 log CFU/g and 6.6 log CFU/g and 6.83 log CFU/g (ATCC 25922, female ICR mice, wound infection, full-thickness wound; dose not given).
The FICI of `N=C(N)c1ccc(OCCC(CCOc2ccc(C(=N)N)cc2)c2ccccc2)cc1` (centres unmarked) is reported as at most 0.063 (checkerboard; mcr-1 polymyxin-resistant; unit not given, added: rifampicin; lower = stronger synergy).
`Nc1ccc2c(c1)B(O)OC2` gave a post-antibiotic effect of 0.78 ± 0.09 h (ATCC 25922; 8xMIC, 1 h).
For `C=C[C@]1(C)C[C@@H](OC(=O)CSC(C)(C)CNC(=O)[C@H](N)C(C)C)[C@]2(C)[C@H](C)CC[C@]3(CCC(=O)[C@H]32)[C@@H](C)[C@@H]1O`, the MIC was over 40 µM (ATCC 25922).
`CN[C@H](CC(C)C)C(=O)N[C@H]1C(=O)N[C@@H](CC(N)=O)C(=O)N[C@H]2C(=O)N[C@H]3C(=O)N[C@H](C(=O)N[C@H](C(=O)O)c4cc(O)cc(O)c4-c4cc3ccc4O)[C@H](O)c3ccc(c(Cl)c3)Oc3cc2cc(c3O[C@@H]2O[C@H](CO)[C@@H](O)[C@H](O)[C@H]2O[C@H]2C[C@](C)(N)[C@H](O)[C@H](C)O2)Oc2ccc(cc2Cl)[C@H]1O` — result for “inhibition zone diameter”: 11 mm (ATCC 25922; 128 µg per disk).
For `OC[C@H]1O[C@@H]2O[C@H]3[C@H](O)[C@@H](O)[C@@H](O[C@H]4[C@H](O)[C@@H](O)[C@@H](O[C@H]5[C@H](O)[C@@H](O)[C@@H](O[C@H]6[C@H](O)[C@@H](O)[C@@H](O[C@H]7[C@H](O)[C@@H](O)[C@@H](O[C@H]8[C@H](O)[C@@H](O)[C@@H](O[C@H]1[C@H](O)[C@H]2O)O[C@@H]8CO)O[C@@H]7CO)O[C@@H]6CO)O[C@@H]5CO)O[C@@H]4CO)O[C@@H]3CO`, the inhibition was -10 ± 7% (LuxR reporter, antagonist; DH5α sensor strain; 1 µM, added: OHHL 200 nM).
For `N[C@@H](CCC(=O)O)C(=O)O`, the EC50 was 102 µM (chemotaxis pathway, FRET; MG1655).
`COC[C@H]1O[C@@H]2O[C@@H]3[C@@H](OC)[C@@H](OC)[C@@H](O[C@@H]4[C@@H](OC)[C@@H](OC)[C@@H](O[C@@H]5[C@@H](OC)[C@@H](OC)[C@@H](O[C@@H]6[C@@H](OC)[C@@H](OC)[C@@H](O[C@@H]7[C@@H](OC)[C@@H](OC)[C@@H](O[C@@H]1[C@@H](OC)[C@H]2OC)O[C@@H]7COC)O[C@@H]6COC)O[C@@H]5COC)O[C@@H]4COC)O[C@@H]3COC` has a bioluminescence of 771 ± 26 RLU (LuxR reporter, agonist; DH5α sensor strain; 1 µM).
With `N=C(N)c1ccc(OCc2cc(COc3ccc(C(=N)N)cc3)cc(-c3ccccc3)c2)cc1` the FICI was at most 0.07 (checkerboard; W3110; unit not given, added: rifampicin; lower = stronger synergy).
Under “inhibition zone diameter”, `CO/N=C(\C(=O)N[C@@H]1C(=O)N2C(C(=O)O)=C(COC(C)=O)CS[C@H]12)c1csc(N)n1` is recorded as 12 mm (CGMCC 1.9; concentration not given, 18 h, 37 °C).
`N=C(N)c1ccc(OCc2ccc3ccc(COc4ccc(C(=N)N)cc4)cc3c2)cc1` — result for “MIC in combination”: 25 µg/mL (BW25113; concentration not given, lowest-FICI combination, added: erythromycin).
With `NC(=O)C[C@H](N)C(=O)O` the EC50 was 15.6 µM (chemotaxis pathway, FRET; MG1655).
`C[C@H]1COc2c(N3CCN(C)CC3)c(F)cc3c(=O)c(C(=O)O)cn1c23` gave an MBC of 2.93 µg/mL (≈ 8.11 µM) (ATCC BAA-1025).
`N=C(N)c1ccc(OCCCCCCCCOc2ccc(C(=N)N)cc2)cc1` — result for “MIC in combination”: 3.13 µg/mL (BW25113; concentration not given, lowest-FICI combination, added: rifampicin).
`C#CCCCC(=O)NCC` has an inhibition of 17 ± 2% (LuxR reporter, antagonist; DH5α sensor strain; 10 µM, added: OHHL 200 nM).
`NCC(=O)O` gave an EC50 of 93.4 µM (chemotactic response, attractant, FRET).
`N=C(N)c1ccc(OCCCCCCCOc2ccc(C(=N)N)cc2)cc1`: “MIC in combination” 12.5 µg/mL (BW25113; concentration not given, lowest-FICI combination, added: erythromycin).
With `Cc1c(CN(C)C(=O)/C=C/c2cnc3c(c2)CC(NC(=O)OC(C)(C)C)C(=O)N3)oc2ccccc12` (centres unmarked) the MIC was over 32 µg/mL (broth microdilution; AR-0162).
`COc1cc(C=O)ccc1OC1=C(Cl)C(=O)c2ccccc2C1=O`: “zone of inhibition” 21 mm (MTCC 405; 10 µg/mL).
For `COC(=O)[C@H]1[C@H]2C[C@@H]3c4[nH]c5cc(OC)ccc5c4CCN3C[C@H]2C[C@@H](OC(=O)c2cc(OC)c(OC)c(OC)c2)[C@@H]1OC`, the tetracycline MIC was 225 µM (checkerboard; tetracycline-resistant (pBR322); 128 µM, added: tetracycline).
`CNC(C)C1CCC(N)C(OC2C(N)CC(N)C(OC3OCC(C)(O)C(NC)C3O)C2O)O1` (centres unmarked) — result for “MIC fold shift”: 4 (ATCC 25922; relative to: 5% CO2 over ambient air).
For `O=C1C(Cl)=C(n2ccnc2)C(=O)c2ccccc21`, “zone of inhibition” read 11 mm (MTCC 405; 10 µg/mL).
`N=C(N)c1ccc(/N=N/Nc2ccc(C(=N)N)cc2)cc1` gave an MIC90 of 1390 ± 115 µM (≈ 391 µg/mL) (bacterial growth, inhibitor, OD600; E22; overnight).
`N#Cc1c(-c2ccc(OCc3ccccc3)cc2)c(C(N)=O)c(N)n(N)c1=O` has a viable count of 6.46 log CFU/mL (time-kill; 1 x MIC, 0 h).
For `CC[C@H]1OC(=O)[C@H](C)[C@@H](O[C@H]2C[C@@](C)(OC)[C@@H](O)[C@H](C)O2)[C@H](C)[C@@H](O[C@@H]2O[C@H](C)C[C@H](N(C)C)[C@H]2O)[C@](C)(O)C[C@@H](C)C(=O)[C@H](C)[C@@H](O)[C@]1(C)O`, “inhibition zone diameter” read 0 mm (CGMCC 1.9; concentration not given, 18 h, 37 °C).
The MIC of `CC(=O)O[C@H]1C[C@@]2(C)[C@@H](C[C@@H](O)[C@H]3[C@@]4(C)CC[C@@H](O)[C@@H](C)[C@@H]4CC[C@@]32C)/C1=C(\CCC=C(C)C)C(=O)O` is reported as 640 µM (ATCC 25922).
`CC(C)C[C@H](NC(=O)[C@H](Cc1ccc(O)cc1)NC(=O)[C@@H]1CCCN1C(=O)[C@H](CCCNC(=N)N)NC(=O)[C@@H]1CCCN1C(=O)[C@H](CCCCN)NC(=O)[C@H](CC(=O)O)NC(=O)[C@@H]1CCCN1C(=O)[C@H](CCCNC(=N)N)NC(=O)C1(N)CCCCC1)C(=O)N1CCC[C@H]1C(=O)N[C@@H](CCCNC(=N)N)C(=O)N1CCC[C@H]1C(=O)N[C@@H](CCCNC(=N)N)C(=O)N1CCC[C@H]1C(=O)N1CCC[C@H]1C(=O)N[C@@H](CCCNC(=N)N)C(=O)N1CCC[C@H]1C(=O)N[C@H](C(=O)N[C@@H](CCCNC(=N)N)C(=O)N[C@@H](CSSC[C@H](NC(=O)[C@H](CCCNC(=N)N)NC(=O)[C@@H](NC(=O)[C@@H]1CCCN1C(=O)[C@H](CCCNC(=N)N)NC(=O)[C@@H]1CCCN1C(=O)[C@@H]1CCCN1C(=O)[C@H](CCCNC(=N)N)NC(=O)[C@@H]1CCCN1C(=O)[C@H](CCCNC(=N)N)NC(=O)[C@@H]1CCCN1C(=O)[C@H](CC(C)C)NC(=O)[C@H](Cc1ccc(O)cc1)NC(=O)[C@@H]1CCCN1C(=O)[C@H](CCCNC(=N)N)NC(=O)[C@@H]1CCCN1C(=O)[C@H](CCCCN)NC(=O)[C@H](CC(=O)O)NC(=O)[C@@H]1CCCN1C(=O)[C@H](CCCNC(=N)N)NC(=O)C1(N)CCCCC1)C(C)C)C(=O)NN)C(=O)NN)C(C)C` gave an MDC of 30.9 ± 1.4 µg/mL (membrane disruption, propidium iodide uptake; 25922; 90 min, 37 °C).
`C[C@H]1COc2c(N3CCN(C)CC3)c(F)cc3c(=O)c(C(=O)O)cn1c23`: “MIC fold shift” 2 (ATCC 25922; relative to: 5% CO2 over ambient air).
Under “MIC in combination”, `N=C(N)c1ccc(OCCS(=O)(=O)CCOc2ccc(C(=N)N)cc2)cc1` is recorded as 3.13 µg/mL (BW25113; concentration not given, lowest-FICI combination, added: erythromycin).
With `CSCC[C@H](N)C(=O)O` the EC50 was over 1000 µM (chemotaxis pathway activity; MG1655).

A few entries again:
The MIC of `CC(=O)O[C@H]1C[C@@]2(C)[C@@H](C[C@@H](O)[C@H]3[C@@]4(C)CC[C@@H](O)[C@@H](C)[C@@H]4CC[C@@]32C)/C1=C(\CCC=C(C)C)C(=O)O` is reported as 640 µM (ATCC 25922).
`CC(C)Oc1c(NC(=O)c2ccc(NC(=O)[C@H](CC(N)=O)NC(=O)c3ccc(NC(=O)c4ccc(C#N)cc4)cc3)cc2)ccc(C(=O)Nc2ccc(C(=O)O)cc2)c1O`: “bacterial burden reduction” 3.97 log10 CFU/g (ATCC 25922, neutropenic mouse thigh infection; intravenous, 20 mg/kg/day, 5 mg/kg/dose; relative to: vehicle).
For `COC(=O)[C@H]1[C@H]2C[C@@H]3c4[nH]c5cc(OC)ccc5c4CCN3C[C@H]2C[C@@H](OC(=O)c2cc(OC)c(OC)c(OC)c2)[C@@H]1OC`, the tetracycline MIC was 225 µM (checkerboard; tetracycline-resistant (pBR322); 128 µM, added: tetracycline).
`CN[C@H](CC(C)C)C(=O)N[C@H]1C(=O)N[C@@H](CC(N)=O)C(=O)N[C@H]2C(=O)N[C@H]3C(=O)N[C@H](C(=O)N[C@H](C(=O)O)c4cc(O)cc(O)c4-c4cc3ccc4O)[C@H](O)c3ccc(c(Cl)c3)Oc3cc2cc(c3O[C@@H]2O[C@H](CO)[C@@H](O)[C@H](O)[C@H]2O[C@H]2C[C@](C)(N)[C@H](O)[C@H](C)O2)Oc2ccc(cc2Cl)[C@H]1O` — result for “inhibition zone diameter”: 11 mm (ATCC 25922; 128 µg per disk).
